Measurements collected from several papers.
Protocols differ between the studies behind these lines. Numbers after ± are the reported error. Where no end group is shown, it is not given here. [ ]: non-standard residue; d: D form.
B1: UGT1A9 (Homo sapiens, UniProt O60656); chain GKLLVVPMDGSHWFTMRSVVEKLILRGHEVVVVMPEVSWQLGRSLNCTVKTYSTSYTLEDLDREFKAFAHAQWKAQVRSIYSLLMGSYNDIFDLFFSNCRSLFKDKKLVEYLKESSFDAVFLDPFDNCGLIVAKYFSLPSVVFARGILCHYLEEGAQCPAPLSYVPRILLGFSDAMTFKERVRNHIMHLEEHLLCHRFFKNALEIASEILQTPVTEYDLYSHTSIWLLRTDFVLDYPKPVMPNMIFIGGINCHQGKPLPMEFEAYINASGEHGIVVFSLGSMVSEIPEKKAMAIADALGKIPQTVLWRYTGTRPSNLANNTILVKWLPQNDLLGHPMTRAFITHAGSHGVYESICNGVPMVMMPLFGDQMDNAKRMETKGAGVTLNVLEMTSEDLENALKAVINDKSYKENIMRLSSLHKDRPVEPLDLAVFWVEFVMRHKGAPHLRPAAHDLTWYQYHSLDVIGFLLAVVLTVAFITFKCCAYGYRKCLGKKGRVKKAHKSKTH

VV[dA]A (D-Ala3)  cell viability (PC-12; protection from Aβ1–42 toxicity, MTT; concentration not given, 6 h, Aβ to peptide ratio 1:1, added: Aβ1–42 2 µM; relative to: untreated cells): 70%
COc1ccc(-c2nc3ccccc3s2)cc1OCc1nnc(-c2ccccc2)o1  minimal effective dose (seizure protection; albino mouse, scPTZ-induced seizure; ip, 4.0 h): 100 mg/kg
CC[C@H](C)[C@H](NC(=O)[C@H](Cc1ccc(O)cc1)NC(=O)[C@H](CCC(=O)O)NC(=O)[C@H](CCCNC(=N)N)NC(=O)[C@@H](NC(=O)[C@H](Cc1c[nH]c2ccccc12)NC(=O)[C@H](CCCCN)NC(=O)[C@H](CCCCN)NC(=O)[C@H](CCC(=O)O)NC(=O)CNC(=O)CON=C(C)CCCC(=O)NCCCC[C@@H]1NC(=O)[C@H](CCC(=O)O)NC(=O)[C@H](CCCCNC(=O)CCCC(C)=NOCC(=O)NCC(=O)N[C@@H](CCC(=O)O)C(=O)N[C@@H](CCCCN)C(=O)N[C@@H](CCCCN)C(=O)N[C@@H](Cc2c[nH]c3ccccc23)C(=O)N[C@H](C(=O)N[C@@H](CCCNC(=N)N)C(=O)N[C@@H](CCC(=O)O)C(=O)N[C@@H](Cc2ccc(O)cc2)C(=O)N[C@H](C(=O)N[C@@H](CC(N)=O)C(=O)N[C@@H](CO)C(=O)N[C@@H](CC(C)C)C(=O)N[C@@H](CCC(=O)O)C(=O)N[C@@H](CCSC)C(=O)N[C@@H](CO)C(=O)O)[C@@H](C)CC)C(C)C)NC(=O)[C@@H]2CCCN2C(=O)[C@H](CSCC(N)=O)NC(=O)[C@H](CCCCNC(=O)CCCC(C)=NOCC(=O)NCC(=O)N[C@@H](CCC(=O)O)C(=O)N[C@@H](CCCCN)C(=O)N[C@@H](CCCCN)C(=O)N[C@@H](Cc2c[nH]c3ccccc23)C(=O)N[C@H](C(=O)N[C@@H](CCCNC(=N)N)C(=O)N[C@@H](CCC(=O)O)C(=O)N[C@@H](Cc2ccc(O)cc2)C(=O)N[C@H](C(=O)N[C@@H](CC(N)=O)C(=O)N[C@@H](CO)C(=O)N[C@@H](CC(C)C)C(=O)N[C@@H](CCC(=O)O)C(=O)N[C@@H](CCSC)C(=O)N[C@@H](CO)C(=O)O)[C@@H](C)CC)C(C)C)NC(=O)[C@H](CCCCN)NC(=O)[C@H](CCCCNC(=O)CCCC(C)=NOCC(=O)NCC(=O)N[C@@H](CCC(=O)O)C(=O)N[C@@H](CCCCN)C(=O)N[C@@H](CCCCN)C(=O)N[C@@H](Cc2c[nH]c3ccccc23)C(=O)N[C@H](C(=O)N[C@@H](CCCNC(=N)N)C(=O)N[C@@H](CCC(=O)O)C(=O)N[C@@H](Cc2ccc(O)cc2)C(=O)N[C@H](C(=O)N[C@@H](CC(N)=O)C(=O)N[C@@H](CO)C(=O)N[C@@H](CC(C)C)C(=O)N[C@@H](CCC(=O)O)C(=O)N[C@@H](CCSC)C(=O)N[C@@H](CO)C(=O)O)[C@@H](C)CC)C(C)C)NC(=O)[C@@H]2CCCN2C(=O)CNC1=O)C(C)C)C(=O)N[C@@H](CC(N)=O)C(=O)N[C@@H](CO)C(=O)N[C@@H](CC(C)C)C(=O)N[C@@H](CCC(=O)O)C(=O)N[C@@H](CCSC)C(=O)N[C@@H](CO)C(=O)O  Btk phosphorylation (flow cytometry; human blood platelets; concentration not given, outcome inhibited, added: CXCL12 1 µg/mL): inhibited
C[C@H]1C[C@H]2CSC(N)=N[C@@]2(c2nc(NC(=O)c3ccc(OC(F)F)cn3)cs2)CO1  change from baseline (refers to: CSF sAPPβ; healthy adults; 125 mg once daily, 14 days, day 15; relative to: placebo-adjusted baseline): -80.2%
V[dF]IA (D-Phe2)  cell viability (PC-12; protection from Aβ1–42 toxicity, MTT; concentration not given, 6 h, Aβ to peptide ratio 1:10, added: Aβ1–42 2 µM; relative to: untreated cells): 70%
COc1ccc(-c2nc3ccccc3s2)cc1OCc1nnc(-c2ccc(O)cc2)o1  minimal effective dose (seizure protection; albino mouse, scPTZ-induced seizure; ip, 0.5 h): 30 mg/kg
c1ccc2c(c1)ccc1c3ccccc3ccc21  menadione reductase activity (inducer; female rat, liver; oral, 1 mg, 24 h, sesame oil vehicle): 15.9 enzyme units
COc1ccc(Cl)cc1C(=O)NCCc1ccc(S(=O)(=O)NC(=O)NC2CCCCC2)cc1  SOD activity (STZ-induced diabetic rat, liver; oral, 0.5 mg/kg, day 28): 8.71 ± 0.57 U/mg protein
CC(=O)O[C@@]12CO[C@@H]1C[C@H](O)[C@@]1(C)C(=O)[C@H](O)C3=C(C)[C@@H](OC(=O)[C@H](O)[C@@H](NC(=O)OC(C)(C)C)c4ccccc4)C[C@@](O)([C@@H](OC(=O)c4ccccc4)[C@H]21)C3(C)C  tumour volume (mice bearing PC-3 xenografts; 5 mg/kg once weekly, 14 days after inoculation, treated 3 weeks): 114 ± 31.1 mm3
NC/C(=C\F)COc1cccc(Cn2c(=S)[nH]c(=O)c3[nH]cnc32)c1  renal fibrosis (mouse, UUO model, left kidney; oral, 60 mg/kg twice daily, 14 days): inhibited
CNS(=O)(=O)Nc1nccc(Cc2c(C)c3ccc(Oc4ncccn4)cc3oc2=O)c1F  FAK Tyr397 phosphorylation (immunohistochemistry, refers to: phospho-FAK Tyr397; human tumour patients, tumour biopsy; dose not given, added: defactinib; relative to: after single dose of compound): increased
O=C(/C=C/c1ccc(O)c(O)c1)OCCc1ccc(O)cc1  radical scavenging (DPPH; ethanol; 20 µM, 30 min, room temperature): 59%
CS/C(S)=N/CCCC[S+](C)[O-] (racemic)  mRNA fold change (RT-PCR, refers to: Marcks; rat, liver; oral gavage, 200 mg/kg, 96 h, dosed for four days; relative to: vehicle): 0.691
B1 (UGT1A9)  Vmax/Km (Oc1ccc(/C=C/c2cc(O)cc(O)c2)cc1; steady-state kinetics; pH 7.4, 37 °C): 63 µL/min/mg
COc1ccc(-c2nc3ccccc3s2)cc1OCc1nnc(-c2cc([N+](=O)[O-])cc([N+](=O)[O-])c2O)o1  minimal effective dose (hind limb tonic extension; albino mouse, MES-induced seizure; ip, 0.5 h): 30 mg/kg
hen egg-white lysozyme  time to presentation (refers to: IL-2; T-cell hybridoma 1C5.1, C3H mice, lymph node cells; dose not given, after immunization): 6 to 12 days
tissue plasminogen activator  microvascular thrombosis (refers to: platelets; rat MCAO stroke model, brain; dose not given, 24 h, dosed 4 h after MCAO; relative to: saline): increased
SIYNFEKL  IL-2 only cells (flow cytometry, refers to: CD44hi CD8+ T cells; peptide, OT-I CD8+ T cells, mouse; dose not given, primed 5 days, TGF-β1 from day 2 onward, added: 20 ng/mL TGF-β1): 21.8%
CCc1cc(-c2noc(-c3cc(OC)nc(C4CCCC4)c3)n2)cc(C)c1OC[C@@H](O)CO  time to clinical score 0.5 (C57BL/6 mice, MOG33-55 EAE; dose not given, therapeutic treatment; direction not given): ≤ 6 days
Cc1cc(C)c(/C=C2\C(=O)Nc3ccccc32)[nH]1  tumour area (MRI; human; concentration not given, 5.9 months): 1.48 cm²
COc1ccc(-c2nc3ccccc3s2)cc1OCc1nnc(-c2c(OC)cccc2OC)o1  minimal effective dose (seizure protection; albino mouse, scPTZ-induced seizure; ip, 0.5 h): 100 mg/kg
Nc1ccc2ccc3c4ccccc4ccc3c2c1  menadione reductase activity (inducer; female rat, liver; oral, 1 mg, 24 h, sesame oil vehicle): 38.8 enzyme units
O=C1NC(=O)C(c2ccccc2)(c2ccccc2)N1  minimal effective dose (seizure protection; albino mouse, scPTZ-induced seizure; ip, 0.5 h): 30 mg/kg
Insulin human  brain concentration (rat, thalamus/hypothalamus; intranasal, 20 µg per nostril, 15 min): 92.7 ± 29 pg/mg tissue

Repeated from above:
VV[dA]A (D-Ala3)  cell viability (PC-12; protection from Aβ1–42 toxicity, MTT; concentration not given, 6 h, Aβ to peptide ratio 1:1, added: Aβ1–42 2 µM; relative to: untreated cells): 70%
CCc1cc(-c2noc(-c3cc(OC)nc(C4CCCC4)c3)n2)cc(C)c1OC[C@@H](O)CO  time to clinical score 0.5 (C57BL/6 mice, MOG33-55 EAE; dose not given, therapeutic treatment; direction not given): ≤ 6 days
Insulin human  brain concentration (rat, thalamus/hypothalamus; intranasal, 20 µg per nostril, 15 min): 92.7 ± 29 pg/mg tissue
